{"data": "Experimental data gathered from unrelated publications", "note": "A part holds a random share of what one study measured. Positions count from the first letter of the parent shown."}
{"data": "Study 1", "target": "Sal-like protein 4, full length isoform B (SALL4, Homo sapiens, UniProt Q9UJQ4-2, residues 1-616)", "technique": "universal PBM", "molecule type": "double-stranded DNA, one strand shown", "sample": "in vitro", "concentration": "not given", "notes": "8-mer, flanks averaged, mean of replicates", "reading": "higher = stronger binding", "Target sequence (chain)": "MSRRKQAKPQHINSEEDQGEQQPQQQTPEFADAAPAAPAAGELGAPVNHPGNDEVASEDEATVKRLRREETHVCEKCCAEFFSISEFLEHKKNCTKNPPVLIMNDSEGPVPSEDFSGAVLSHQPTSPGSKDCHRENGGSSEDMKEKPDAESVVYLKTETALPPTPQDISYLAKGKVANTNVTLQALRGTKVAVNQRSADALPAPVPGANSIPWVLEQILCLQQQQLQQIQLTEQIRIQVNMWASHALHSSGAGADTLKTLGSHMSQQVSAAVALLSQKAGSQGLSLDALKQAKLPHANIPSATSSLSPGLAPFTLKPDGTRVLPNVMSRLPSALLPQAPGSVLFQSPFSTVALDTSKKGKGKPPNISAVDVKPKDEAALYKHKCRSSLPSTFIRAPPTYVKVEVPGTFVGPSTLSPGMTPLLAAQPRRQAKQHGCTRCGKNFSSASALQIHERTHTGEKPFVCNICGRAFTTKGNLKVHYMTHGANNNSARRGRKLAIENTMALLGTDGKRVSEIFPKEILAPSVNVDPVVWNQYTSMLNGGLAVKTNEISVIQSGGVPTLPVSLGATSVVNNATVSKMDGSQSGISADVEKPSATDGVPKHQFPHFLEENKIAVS"}
{"Sequence": "GCCTAATA", "E-score": 0.14}
{"Sequence": "CGGCTGGA", "E-score": -0.268}
{"Sequence": "TCTTAAGA", "E-score": 0.15}
{"Sequence": "CGATGACG", "E-score": -0.15}
{"Sequence": "AGATGCGA", "E-score": 0.0512}
{"Sequence": "ACTTAACC", "E-score": 0.18}
{"Sequence": "GGCATGCA", "E-score": -0.0482}
{"Sequence": "CGACAAGC", "E-score": -0.223}
{"Sequence": "AAAATTAC", "E-score": 0.352}
{"Sequence": "AGGGTGCG", "E-score": -0.202}
{"data": "Study 2", "target": "RNA binding protein fox-1 homolog 2, RRM domain, GST-SBP tag (RBFOX2, Homo sapiens, UniProt O43251-10, residues 100-194)", "technique": "RNA Bind-n-Seq", "molecule type": "RNA", "sample": "in vitro", "concentration": "365 nM", "notes": "natural RNA segment, single round, ends assumed", "reference": "no-protein control", "reading": "higher = stronger binding", "Target sequence (chain)": "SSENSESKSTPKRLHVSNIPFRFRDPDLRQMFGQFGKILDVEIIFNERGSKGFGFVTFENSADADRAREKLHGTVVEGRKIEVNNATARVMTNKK"}
{"Sequence": "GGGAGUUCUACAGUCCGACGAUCCACUUUGUCUUACCUCAAUUGAGUAACAGAAUAUAGCUCCUGAAGGAAACACUGAUUUGCUUUCUGUUUCCCAUAUCUCACCUCUAGGAUAUGAUGGAAGAAGUGCUUGAUGGAAUUCUCGGGUGCCAA", "RBNS enrichment (R)": 0.423}
{"Sequence": "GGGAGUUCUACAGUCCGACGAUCCAGCACUCUAAUGCACAGCUGCUGACAAUAAAAGCCCCAACUCUUAACGGAGAUCAGUGGGAGUUACAGGCAUCUCAGUUAUCAAGGAAUUGAACUCCUUGAGAGAUAGUUGGAAUUCUCGGGUGCCAA", "RBNS enrichment (R)": 0.541}
{"Sequence": "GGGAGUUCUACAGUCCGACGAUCACCCACAUUCCACUCUAGUUGGGGCUUGUGACUUAGCCCUGGACUCUGUUUCUGCAGGCAAGGGACAGCGAGGGCUGAGCAUUGGCCUGUAUAAUCUGGUCAGCUUGGACUGGAAUUCUCGGGUGCCAA", "RBNS enrichment (R)": 0.373}
{"Sequence": "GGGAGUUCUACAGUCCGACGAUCCCUCGGGGGAUUAAAGGAUCUAAAGAGAAAAUGGCACCUGGUUGUCUUCGUGCUGUGUCUCAUGGGUUUCCAUAGUGAUAAAGACAAGGAAACGCUGCAGGGGCCACAGGUGGAAUUCUCGGGUGCCAA", "RBNS enrichment (R)": 0.293}
{"Sequence": "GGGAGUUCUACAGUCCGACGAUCUGGUGCUAGUGCAUGUACCCUGUGGUAUUGCCCCUCUGUCCGUAGUGUGAACUGUCCUGUGAGCUUUAUGUCAGGAGACUGUGACCUUCAUGUCCAGCUUCAAAGAGUUGUGGAAUUCUCGGGUGCCAA", "RBNS enrichment (R)": 4.34}
{"Sequence": "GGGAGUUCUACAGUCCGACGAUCGGCUGUGGGCUAUCUGGGUACAAUGAUUUAGCCGUGGCUGUGGGCUAUCUGGGUGCAAUGAUUUAGCCGUGGCUGUGGGCUAUCUUCCUGUUAGCCUUGGACUGAAGGGGUGGAAUUCUCGGGUGCCAA", "RBNS enrichment (R)": 1.07}
{"Sequence": "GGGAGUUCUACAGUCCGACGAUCACUUCUAAAAUCCUAGCAAUACUUAGAAUAACACAUCAGUGAGAUAAAUUUUACUCAAUUAUUUUACAAACCAAAUUGAGUUAUUCAAACACAAGCCAGUAUUCUGUGAAUGGAAUUCUCGGGUGCCAA", "RBNS enrichment (R)": 0.386}
{"data": "Study 3", "target": "CCNB3, cyclin fold, Cln2 fusion (human)", "technique": "yeast growth competition, sequencing", "sample": "yeast", "notes": "weak parent motif", "reference": "not given", "reading": "higher = stronger binding", "starting sequence": "SLBP docking peptide (human); ARYKRKLLINDFG; partner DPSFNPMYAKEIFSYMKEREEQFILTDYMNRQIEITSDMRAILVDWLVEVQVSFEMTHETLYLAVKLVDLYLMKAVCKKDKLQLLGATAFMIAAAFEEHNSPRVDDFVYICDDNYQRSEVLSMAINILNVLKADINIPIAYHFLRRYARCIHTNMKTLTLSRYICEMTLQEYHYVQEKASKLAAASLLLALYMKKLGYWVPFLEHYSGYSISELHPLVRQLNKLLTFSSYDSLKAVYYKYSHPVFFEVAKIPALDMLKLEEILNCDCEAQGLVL"}
{"Substitution": "ARYKRKLNINDFG [L8N]", "normalised enrichment score": 0.27}
{"Substitution": "ARYKRKLLICDFG [N10C]", "normalised enrichment score": 0.0728}
{"Substitution": "AWYKRKLLINDFG [R2W]", "normalised enrichment score": 0.342}
{"Substitution": "AGYKRKLLINDFG [R2G]", "normalised enrichment score": 0.343}
{"Substitution": "ARYKRKLLIFDFG [N10F]", "normalised enrichment score": 0.522}
{"Substitution": "ARYRRKLLINDFG [K4R]", "normalised enrichment score": -0.0467}
{"Substitution": "ARYKRKNLINDFG [L7N]", "normalised enrichment score": 0.839}
{"data": "Other studies, line by line"}
{"Molecule": "PhoQ, residues 284 288 289 292 302 303 GNNTDL", "target": "PhoP, residues 12 14 15 18 19 HLGGL (Escherichia coli, UniProt P23836)", "assay": "Sort-seq, item: YFP reporter", "test system": "E. coli", "conditions": "PhoQ-PhoP variant library, together with: 10 µM Mg2+", "scale": "reference: high Mg2+ state, higher = stronger signaling", "quantity": "fold induction", "value": 6.08}
{"note": "Excerpt of the above (study 1):"}
{"Sequence": "AGATGCGA", "E-score": 0.0512}
{"Sequence": "ACTTAACC", "E-score": 0.18}
{"Sequence": "GGCATGCA", "E-score": -0.0482}
